Experimental data from different studies.
Lines come from different studies, so protocols differ.
Target: Serine/threonine-protein kinase LATS2 (LATS2, Homo sapiens, UniProt Q9NRM7)

C=CC(=O)Nc1cccc(-c2cnc3[nH]cc(C(=O)NC(C)(C)C)c3n2)c1 — inhibition (enzyme activity, inhibitor; 0.1 µM): 5%
CNC(=O)C1CCN(c2cc(C)c(F)cc2NC(=O)c2ccc(-c3cc(O)ccc3C)c(C)c2)CC1 — remaining binding (binding, competition with immobilised ligand; 1 µM): 84%
NC(=O)[C@@H](O)C[C@H]1CCc2sc3ncnc(O[C@H]4CC[C@H](N5CCOCC5)CC4)c3c21 — inhibition (enzyme activity, inhibitor; 10 µM): 10%
COc1cc(Nc2nccc(-c3cnn4nc(OC)ccc34)n2)cc(C(F)(F)F)c1 — remaining binding (binding, competition with immobilised ligand; 1 µM): 96%
O=C(Cc1ccc(OCc2ccccc2)cc1)NC1(C(=O)O)CCN(C(=O)c2ccc(-c3cccc(Cl)c3)cc2)CC1 — activity vs control (enzyme activity, inhibitor; 10 µM): 117%
CCN1CCN(Cc2ccc(C(=O)Nc3ccc(C)c(NCc4cnc5[nH]ccc5c4OC)c3)cc2C(F)(F)F)CC1 — remaining binding (binding, competition with immobilised ligand; 1 µM): 100%
Cc1cnc2nc1Nc1cccc(c1)COC/C=C/COCc1cc(ccc1OCCN1CCOCC1)N2 — remaining signal (cell-free assay; 0.1 µM): 96%
C=CC(=O)N1CCc2ccc(-n3c(=O)ccc4cnc5ccc(-c6cnn(C)c6)cc5c43)cc21 — remaining binding (KINOMEscan; 1 µM; baseline: DMSO control): 70%
Cc1c[nH]c2nccc(-c3ccc(C(=O)N[C@@H]4c5c(F)cc(C(F)F)cc5C[C@@H]4O)cn3)c12 — remaining binding (binding, competition with immobilised ligand; 3 µM): 0%
Cc1cccc(O[C@H]2CCC[C@@H](C(C)CNCc3ccncc3)C2)c1 (relative stereo) — inhibition (kinase activity, kinome panel screening; 10 µM): -2%
CS(=O)(=O)Nc1cccc(-c2csc3cnc(Nc4ccc(N5CCN(CCCCCOc6cccc7c6C(=O)N(C6CCC(=O)NC6=O)C7=O)CC5)cc4)nc23)c1 (stereo not drawn) — inhibition (probe labelling, inhibitor, KiNativ chemoproteomics; MOLT-4; 1 µM): 21.1%
C=CC(=O)N1Cc2nc(-c3cc(-c4cc(Cl)cnc4Cl)c(F)cc3F)n(-c3ccncn3)c2C1 — inhibition (cell-free assay, inhibitor; 1 µM): 5.1%

A few entries again:
CCN1CCN(Cc2ccc(C(=O)Nc3ccc(C)c(NCc4cnc5[nH]ccc5c4OC)c3)cc2C(F)(F)F)CC1 — remaining binding (binding, competition with immobilised ligand; 1 µM): 100%
C=CC(=O)N1CCc2ccc(-n3c(=O)ccc4cnc5ccc(-c6cnn(C)c6)cc5c43)cc21 — remaining binding (KINOMEscan; 1 µM; baseline: DMSO control): 70%
